Measured values collected from several papers.
Protocols differ between the studies behind these lines. Several values in a cell are separate wells, animals, samples, runs or records. Numbers after ± are the reported error.
prp N63Q: Ribosomal processing cysteine protease Prp (prp, Staphylococcus aureus, UniProt Q2FXS9, N63Q)
Sequence of UniProt P07197 (whole entry, looked up): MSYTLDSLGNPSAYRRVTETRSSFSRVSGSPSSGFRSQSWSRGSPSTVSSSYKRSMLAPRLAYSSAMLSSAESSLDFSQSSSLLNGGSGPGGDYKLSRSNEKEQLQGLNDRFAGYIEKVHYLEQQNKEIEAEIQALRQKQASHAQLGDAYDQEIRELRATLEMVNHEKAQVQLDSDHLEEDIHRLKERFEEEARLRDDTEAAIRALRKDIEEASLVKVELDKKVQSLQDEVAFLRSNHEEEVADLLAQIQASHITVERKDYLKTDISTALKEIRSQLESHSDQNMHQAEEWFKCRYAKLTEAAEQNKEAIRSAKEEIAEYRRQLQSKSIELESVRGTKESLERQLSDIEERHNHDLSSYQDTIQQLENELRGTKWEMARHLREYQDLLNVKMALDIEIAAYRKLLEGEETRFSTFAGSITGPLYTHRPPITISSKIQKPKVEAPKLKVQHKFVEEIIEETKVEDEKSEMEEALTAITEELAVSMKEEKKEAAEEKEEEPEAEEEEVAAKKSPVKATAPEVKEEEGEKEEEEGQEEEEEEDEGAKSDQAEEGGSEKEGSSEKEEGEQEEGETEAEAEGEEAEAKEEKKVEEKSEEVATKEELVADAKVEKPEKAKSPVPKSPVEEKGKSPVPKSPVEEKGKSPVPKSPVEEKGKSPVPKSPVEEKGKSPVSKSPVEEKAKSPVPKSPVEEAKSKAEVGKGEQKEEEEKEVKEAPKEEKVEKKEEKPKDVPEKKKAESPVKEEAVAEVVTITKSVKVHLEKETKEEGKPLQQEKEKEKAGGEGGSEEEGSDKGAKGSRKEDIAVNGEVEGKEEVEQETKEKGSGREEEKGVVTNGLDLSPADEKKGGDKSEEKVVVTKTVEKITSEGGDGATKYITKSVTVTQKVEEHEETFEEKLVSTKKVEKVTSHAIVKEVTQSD
Sequence of UniProt P97612 (whole entry, looked up): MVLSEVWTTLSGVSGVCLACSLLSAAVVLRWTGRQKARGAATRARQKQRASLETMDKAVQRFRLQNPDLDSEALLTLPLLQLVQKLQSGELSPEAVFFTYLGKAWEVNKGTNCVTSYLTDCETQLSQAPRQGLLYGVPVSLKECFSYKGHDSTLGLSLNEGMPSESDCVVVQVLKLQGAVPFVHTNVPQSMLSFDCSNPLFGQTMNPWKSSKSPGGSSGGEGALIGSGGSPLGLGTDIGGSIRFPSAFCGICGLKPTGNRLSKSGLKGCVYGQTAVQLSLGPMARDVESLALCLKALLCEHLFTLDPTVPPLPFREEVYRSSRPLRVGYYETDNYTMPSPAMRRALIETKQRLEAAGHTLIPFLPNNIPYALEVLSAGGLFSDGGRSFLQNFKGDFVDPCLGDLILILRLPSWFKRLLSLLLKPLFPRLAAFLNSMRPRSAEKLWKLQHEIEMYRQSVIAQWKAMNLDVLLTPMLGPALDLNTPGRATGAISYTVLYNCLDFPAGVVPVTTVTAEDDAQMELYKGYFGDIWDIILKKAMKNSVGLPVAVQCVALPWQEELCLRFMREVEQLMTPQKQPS
Sequence of UniProt Q9NS75 (whole entry, looked up): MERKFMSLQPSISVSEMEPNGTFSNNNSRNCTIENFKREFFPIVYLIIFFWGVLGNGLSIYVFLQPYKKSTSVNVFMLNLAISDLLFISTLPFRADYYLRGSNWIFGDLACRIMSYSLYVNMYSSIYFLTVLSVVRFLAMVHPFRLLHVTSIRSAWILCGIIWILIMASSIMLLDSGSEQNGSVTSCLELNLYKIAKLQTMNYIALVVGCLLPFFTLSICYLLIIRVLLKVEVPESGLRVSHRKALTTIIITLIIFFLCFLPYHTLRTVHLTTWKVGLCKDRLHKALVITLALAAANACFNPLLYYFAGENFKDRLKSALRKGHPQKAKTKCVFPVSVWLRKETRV
Sequence of UniProt Q13557 (whole entry, looked up): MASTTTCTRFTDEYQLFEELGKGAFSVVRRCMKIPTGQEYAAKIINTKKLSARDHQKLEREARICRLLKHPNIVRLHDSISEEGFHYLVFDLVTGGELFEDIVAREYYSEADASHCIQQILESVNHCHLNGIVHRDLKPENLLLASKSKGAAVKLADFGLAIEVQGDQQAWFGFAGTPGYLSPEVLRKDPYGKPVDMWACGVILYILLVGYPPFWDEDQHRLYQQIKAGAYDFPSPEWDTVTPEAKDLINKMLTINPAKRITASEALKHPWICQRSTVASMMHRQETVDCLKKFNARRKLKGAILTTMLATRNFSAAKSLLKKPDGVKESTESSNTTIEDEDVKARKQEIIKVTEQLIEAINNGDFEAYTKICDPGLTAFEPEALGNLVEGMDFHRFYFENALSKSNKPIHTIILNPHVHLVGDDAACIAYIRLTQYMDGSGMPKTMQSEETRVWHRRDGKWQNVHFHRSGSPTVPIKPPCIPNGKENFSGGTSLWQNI
Sequence of UniProt O15146 (whole entry, looked up): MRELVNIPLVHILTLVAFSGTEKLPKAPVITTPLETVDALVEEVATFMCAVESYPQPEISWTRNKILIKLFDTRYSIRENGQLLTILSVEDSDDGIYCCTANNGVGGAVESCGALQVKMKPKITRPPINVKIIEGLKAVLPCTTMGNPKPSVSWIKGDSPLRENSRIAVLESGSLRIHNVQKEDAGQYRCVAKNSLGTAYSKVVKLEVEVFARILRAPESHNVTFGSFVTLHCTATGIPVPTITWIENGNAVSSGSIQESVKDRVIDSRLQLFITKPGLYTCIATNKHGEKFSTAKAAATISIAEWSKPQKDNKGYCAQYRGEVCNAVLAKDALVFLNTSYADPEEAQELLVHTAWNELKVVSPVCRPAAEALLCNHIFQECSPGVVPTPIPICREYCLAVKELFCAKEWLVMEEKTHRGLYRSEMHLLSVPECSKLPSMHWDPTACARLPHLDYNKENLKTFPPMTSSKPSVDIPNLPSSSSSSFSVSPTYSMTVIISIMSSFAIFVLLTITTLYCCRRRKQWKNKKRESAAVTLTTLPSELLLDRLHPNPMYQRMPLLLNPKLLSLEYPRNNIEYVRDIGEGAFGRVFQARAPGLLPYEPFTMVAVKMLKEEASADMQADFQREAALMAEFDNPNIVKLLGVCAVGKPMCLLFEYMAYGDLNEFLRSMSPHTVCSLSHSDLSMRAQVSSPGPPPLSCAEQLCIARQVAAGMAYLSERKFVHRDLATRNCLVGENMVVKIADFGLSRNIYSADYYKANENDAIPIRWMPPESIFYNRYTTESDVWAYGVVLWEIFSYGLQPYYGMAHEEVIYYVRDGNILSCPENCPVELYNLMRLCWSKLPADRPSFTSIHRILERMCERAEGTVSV
Sequence of UniProt P51451 (whole entry, looked up): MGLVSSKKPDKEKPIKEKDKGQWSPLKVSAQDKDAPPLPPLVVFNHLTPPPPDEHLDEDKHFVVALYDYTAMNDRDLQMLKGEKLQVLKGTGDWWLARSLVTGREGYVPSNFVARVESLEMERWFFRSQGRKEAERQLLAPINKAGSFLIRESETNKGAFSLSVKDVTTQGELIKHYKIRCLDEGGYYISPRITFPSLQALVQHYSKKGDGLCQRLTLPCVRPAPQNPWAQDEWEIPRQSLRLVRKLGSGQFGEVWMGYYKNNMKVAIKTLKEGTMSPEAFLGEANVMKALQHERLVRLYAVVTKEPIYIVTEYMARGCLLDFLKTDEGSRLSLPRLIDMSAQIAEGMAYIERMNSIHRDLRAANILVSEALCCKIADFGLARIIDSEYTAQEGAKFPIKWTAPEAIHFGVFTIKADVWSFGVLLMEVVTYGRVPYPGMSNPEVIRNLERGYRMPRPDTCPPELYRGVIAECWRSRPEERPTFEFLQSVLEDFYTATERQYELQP
Sequence of UniProt P46093 (whole entry, looked up): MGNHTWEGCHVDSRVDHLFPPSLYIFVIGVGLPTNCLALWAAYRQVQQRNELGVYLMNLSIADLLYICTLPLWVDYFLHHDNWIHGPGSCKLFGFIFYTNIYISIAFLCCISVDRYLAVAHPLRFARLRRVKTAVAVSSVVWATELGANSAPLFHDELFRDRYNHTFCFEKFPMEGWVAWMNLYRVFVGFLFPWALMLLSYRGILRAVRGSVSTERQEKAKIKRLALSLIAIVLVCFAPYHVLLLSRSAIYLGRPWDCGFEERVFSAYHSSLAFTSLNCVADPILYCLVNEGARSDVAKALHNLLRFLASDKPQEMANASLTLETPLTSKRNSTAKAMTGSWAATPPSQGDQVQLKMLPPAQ

SMILES | tested on | test | test system | setting | scale | quantity | value
Oc1ccc2c3c1O[C@H]1[C@@H](O)CC[C@@]4(O)[C@@H](C2)N(CC2CCC2)CC[C@]314 | G-prodeshotein coupled receptor 4 (GPR4, Homo sapiens, UniProt P46093) | β-arrestin recruitment, TANGO luminescence | – | concentration not given | baseline: basal luminescence | log2 fold change | 0.088
O=C(Nc1cnccc1Cl)N1CCN(Cc2ccc3c(c2)OC(F)(F)O3)CC1 | Calcium/calmodulin-dependent protein kinase type II subunit delta (CAMK2D, Homo sapiens, UniProt Q13557) | enzyme activity, inhibitor | – | 10 µM, with: autocamtide-2 | – | inhibition | 9%
COC(=O)N[C@H](C(=O)N[C@@H](Cc1ccccc1)[C@@H](O)CN(Cc1ccc(-c2ccccn2)cc1)NC(=O)[C@@H](NC(=O)OC)C(C)(C)C)C(C)(C)C | prp N63Q | enzyme activity, inhibitor | – | 10 µM, prp 21.4 nM, with: FITC peptide substrate 0.5 µM | – | inhibition | 33.6 ± 9.7%
CN(C(=O)n1cnc(-c2ccc[n+]([O-])c2)c1)C1CCCCC1 | Fatty-acid amide hydrolase 1 (Faah, Rattus norvegicus, UniProt P97612) | probe labelling, inhibitor, competitive ABPP | rat brain soluble fraction | 10 µM, with: azido-FP probe | – | inhibition | 30.8%
C[C@H]1CN(c2n[nH]c3nc(N[C@H]4CC[C@H](NS(=O)(=O)CCC(F)(F)F)CC4)ncc23)CCO1 | Neurofilament medium polypeptide (Homo sapiens, UniProt P07197) | Kinobeads competition, refers to: NEFM | – | 0.032 µM, unit not given | baseline: vehicle | remaining binding | 0.68
CN1CCN(c2cc(-c3ccncc3)c(-c3ccc4ccccc4c3)nn2)CC1 | Cysteinyl leukotriene receptor 2 (CYSLTR2, Homo sapiens, UniProt Q9NS75) | antagonist, FLIPR | – | 10 µM | – | inhibition | -20.1%
CC(=O)NC[C@H]1[C@H](O)[C@H](O)[C@@H]2[C@H](O)C[C@@H](CO)N21 | β-N-acetylglucosaminidase | enzyme activity, inhibitor, colorimetric | Canavalia ensiformis | 5.15 nM, with: p-nitrophenyl GlcNAc substrate | – | inhibition | 86.9% and 88.2%
COc1cc(Nc2ncc(F)c(Nc3ccc4c(n3)NC(=O)C(C)(C)O4)n2)cc(OC)c1OC | Muscle, skeletal receptor tyrosine-protein kinase (MUSK, Homo sapiens, UniProt O15146) | KINOMEscan | – | 10 µM | – | inhibition | 99%
O=C(Nc1cccnn1)N1CCC(=Cc2cccc(Oc3ccc(C(F)(F)F)cn3)c2)CC1 | kainate receptor, rat | binding | – | 10 µM, with: [3H]kainic acid | – | inhibition | 20%
Cc1cc(C(=O)CN2CCCC2)c(C)n1-c1ccc(F)cc1 | prp N63Q | enzyme activity | – | 10 µM, 21.4 nM enzyme dimer, with: 0.5 µM FITC-labelled peptide substrate | – | inhibition | 30.6 ± 6%
CC[C@H](C)[C@H](NC(=O)[C@H](Cc1ccccc1)NC(=O)[C@H](CCC(=O)O)NC(=O)[C@H](CCCNC(=N)N)NC(=O)[C@H](C)NC(=O)[C@H](C)NC(=O)[C@H](CCC(N)=O)NC(=O)[C@H](CCC(=O)O)NC(=O)[C@H](CCC(=O)O)NC(=O)[C@H](CC(C)C)NC(=O)[C@H](Cc1ccc(O)cc1)NC(=O)[C@H](CO)NC(=O)[C@H](CO)NC(=O)[C@@H](NC(=O)[C@H](CC(=O)O)NC(=O)[C@H](CO)NC(=O)[C@@H](NC(=O)[C@H](Cc1ccccc1)NC(=O)[C@@H](NC(=O)CNC(=O)[C@H](CCC(=O)O)NC(=O)[C@H](C)NC(=O)CCc1c[nH]cn1)[C@@H](C)O)[C@@H](C)O)C(C)C)C(=O)N[C@@H](C)C(=O)N[C@@H](Cc1c[nH]c2ccccc12)C(=O)N[C@@H](CC(C)C)C(=O)N[C@H](C(=O)N[C@@H](CCCNC(=N)N)C(=O)NCC(=O)N[C@@H](CCCNC(=N)N)C(=O)N[C@@H](CCCCNC(=O)COCCOCCNC(=O)COCCOCCNC(=O)CC[C@H](NC(=O)CCCCCCCCCCCCCCCCC(=O)O)C(=O)O)C(=O)NCC(=O)NCC(=O)N[C@@H](CO)C(=O)N[C@@H](CCCCNc1c(NCCCCCN(O)C(=O)CCC(=O)NCCCCCN(O)C(=O)CCC(=O)NCCCCCN(O)C(C)=O)c(=O)c1=O)C(=O)O)C(C)C [zirconium-89 labelled] | – | gamma counting | rat, skin at injection site | intravenous, 3 nmol/kg, 4 h | – | tissue uptake | 0.25 %ID/g
COc1ccc(N2C(=O)N(c3c(C)cccc3Cl)Cc3cnc(Nc4ccc(C5CCN(C)CC5)cc4OC)nc32)nc1 | Tyrosine-protein kinase Blk (BLK, Homo sapiens, UniProt P51451) | kinase activity | – | 0.5 µM | – | inhibition | 91%
CCCCN1CCC(COC(=O)c2ccc(N)c(O[11CH3])c2)CC1 | – | 5-HT4 receptor binding, PET | rhesus monkey (Macaca mulatta), brain striatum | dose not given, baseline scan, unit not given | baseline: cerebellum reference region | binding potential BPND | 1.02 ± 0.03
COc1cccc2c1C(=O)c1c(O)c3c(c(O)c1C2=O)C[C@@](O)(C(=O)CO)C[C@@H]3O[C@H]1C[C@H](N)[C@H](O)[C@H](C)O1 | prp N63Q | enzyme activity, inhibitor | – | 10 µM, prp 21.4 nM, with: FITC peptide substrate 0.5 µM | – | inhibition | 1.2 ± 9.2%
CC[C@H](C)[C@@H]1NC(=O)[C@@H]2CCCN2C(=O)[C@H](CC(C)C)NC(=O)[C@H](CC(C)C)NC(=O)CNC(=O)[C@@H](NC(=O)[C@@H](NC(=O)[C@H](CC(=O)O)NC(=O)CNC(=O)[C@@H](NC(=O)[C@H](C)NC(=O)CNC(=O)[C@H](CCCCN)NC(=O)[C@H](CC(C)C)NC(=O)[C@H](CC(C)C)NC(=O)[C@H](CCCCN)NC(=O)CNC(=O)[C@@H](NC(=O)[C@@H](N)CC(C)C)C(C)C)C(C)C)C(C)C)CSSC[C@@H](C(=O)O)NC1=O | – | RNA-seq, refers to: Grap2 | mouse, traumatic brain injury model, frontal cortex and hippocampus | dose not given | baseline: TBI alone | log2 fold change | -1.59

Excerpt of the above:
SMILES | tested on | test | test system | setting | scale | quantity | value
C[C@H]1CN(c2n[nH]c3nc(N[C@H]4CC[C@H](NS(=O)(=O)CCC(F)(F)F)CC4)ncc23)CCO1 | Neurofilament medium polypeptide (Homo sapiens, UniProt P07197) | Kinobeads competition, refers to: NEFM | – | 0.032 µM, unit not given | baseline: vehicle | remaining binding | 0.68
O=C(Nc1cccnn1)N1CCC(=Cc2cccc(Oc3ccc(C(F)(F)F)cn3)c2)CC1 | kainate receptor, rat | binding | – | 10 µM, with: [3H]kainic acid | – | inhibition | 20%
